# Measured values of several laboratories.
# Each numbered part is a random draw from the data of one study; scales do not carry over between parts.
# Chain of UniProt Q15208 (whole entry, looked up): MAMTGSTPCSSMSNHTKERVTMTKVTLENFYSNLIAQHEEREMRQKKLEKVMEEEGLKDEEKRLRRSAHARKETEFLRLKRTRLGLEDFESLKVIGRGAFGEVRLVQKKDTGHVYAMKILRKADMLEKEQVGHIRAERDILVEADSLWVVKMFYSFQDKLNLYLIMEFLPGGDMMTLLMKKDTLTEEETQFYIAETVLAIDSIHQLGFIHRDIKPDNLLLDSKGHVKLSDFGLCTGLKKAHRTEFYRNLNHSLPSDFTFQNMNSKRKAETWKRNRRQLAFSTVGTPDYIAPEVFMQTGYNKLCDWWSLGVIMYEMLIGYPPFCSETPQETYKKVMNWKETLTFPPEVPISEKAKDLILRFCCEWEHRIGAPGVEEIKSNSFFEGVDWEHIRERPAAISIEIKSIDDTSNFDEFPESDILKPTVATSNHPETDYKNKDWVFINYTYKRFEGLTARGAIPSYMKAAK
# Chain of UniProt P10721 (whole entry, unmodified, looked up): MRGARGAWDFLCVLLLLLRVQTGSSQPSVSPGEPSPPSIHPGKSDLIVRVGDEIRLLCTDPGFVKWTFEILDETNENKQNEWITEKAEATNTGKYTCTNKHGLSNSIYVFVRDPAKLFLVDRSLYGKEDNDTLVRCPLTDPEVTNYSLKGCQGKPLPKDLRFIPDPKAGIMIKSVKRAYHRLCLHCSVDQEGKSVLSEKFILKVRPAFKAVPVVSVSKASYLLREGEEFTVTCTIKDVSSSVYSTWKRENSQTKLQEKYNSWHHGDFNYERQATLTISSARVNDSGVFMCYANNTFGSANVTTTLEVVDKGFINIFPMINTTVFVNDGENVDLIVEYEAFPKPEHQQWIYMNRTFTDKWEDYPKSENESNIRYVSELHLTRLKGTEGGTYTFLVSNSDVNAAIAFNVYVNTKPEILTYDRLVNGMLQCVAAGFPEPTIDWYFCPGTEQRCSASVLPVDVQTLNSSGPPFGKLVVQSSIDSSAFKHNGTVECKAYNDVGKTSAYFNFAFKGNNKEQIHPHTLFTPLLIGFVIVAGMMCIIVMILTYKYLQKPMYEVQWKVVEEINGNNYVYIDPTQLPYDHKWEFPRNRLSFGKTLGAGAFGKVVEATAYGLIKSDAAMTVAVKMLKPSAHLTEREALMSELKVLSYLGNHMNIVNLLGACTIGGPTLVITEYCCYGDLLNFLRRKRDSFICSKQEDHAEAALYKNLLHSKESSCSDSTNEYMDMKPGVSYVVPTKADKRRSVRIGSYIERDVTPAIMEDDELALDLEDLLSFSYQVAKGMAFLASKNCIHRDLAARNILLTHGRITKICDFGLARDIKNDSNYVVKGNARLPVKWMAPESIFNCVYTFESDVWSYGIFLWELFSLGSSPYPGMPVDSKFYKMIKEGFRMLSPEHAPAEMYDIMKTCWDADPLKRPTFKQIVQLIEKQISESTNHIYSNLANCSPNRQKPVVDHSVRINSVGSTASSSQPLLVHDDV
# Chain of UniProt Q00532 (whole entry, looked up): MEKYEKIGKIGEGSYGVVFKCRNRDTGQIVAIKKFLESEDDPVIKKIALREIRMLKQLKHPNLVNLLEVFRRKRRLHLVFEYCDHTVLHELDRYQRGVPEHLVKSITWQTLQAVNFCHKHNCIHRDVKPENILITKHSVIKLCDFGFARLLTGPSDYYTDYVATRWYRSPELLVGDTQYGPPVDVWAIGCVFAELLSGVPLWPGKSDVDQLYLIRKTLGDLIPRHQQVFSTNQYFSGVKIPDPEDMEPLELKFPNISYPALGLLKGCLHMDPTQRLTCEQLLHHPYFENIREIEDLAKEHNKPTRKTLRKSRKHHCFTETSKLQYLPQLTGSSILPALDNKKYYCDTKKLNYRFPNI

# Sample 1
# Cell line: HaCaT
# Concentration: 100 µM
# Time: 36 h
SMILES,viability
O=C(OOC(=O)c1ccccc1)c1ccccc1,95.6%
O=C(Nc1ccccc1)c1ccccc1O,28.9%
NC(=O)c1cccnc1,94.2%
Cc1nc(-c2ccc(OCC(C)C)c(C#N)c2)sc1C(=O)O,80%
CCN1CCN(C(=O)N[C@@H](C(=O)N[C@@H]2C(=O)N3C(C(=O)O)=C(CSc4nnnn4C)CS[C@H]23)c2ccc(O)cc2)C(=O)C1=O,113%
CCCc1nc2c(C)cc(-c3nc4ccccc4n3C)cc2n1Cc1ccc(-c2ccccc2C(=O)O)cc1,40.7%
OCc1ccccc1O[C@@H]1O[C@H](CO)[C@@H](O)[C@H](O)[C@H]1O,85.4%
O=C(O)CN(CCN(CC(=O)O)CC(=O)O)CC(=O)O,92.1%
COc1cc2c(cc1OC)[C@H]1CC(=O)[C@H](CC(C)C)CN1CC2 (racemic),73.7%
CCN(CC)C(=O)c1ccc(O)c(OC)c1,84.4%
CCCCOc1ccc(CC(=O)NO)cc1,77.6%
O=C(O)CSCC(=O)NC1CCSC1=O (stereo not shown),72.3%
COc1cccc2c1C(=O)c1c(O)c3c(c(O)c1C2=O)C[C@@](O)(C(=O)CO)C[C@@H]3O[C@H]1C[C@H](N)[C@H](O)[C@H](C)O1,26.4%
Cc1nc(Nc2ccc(F)cc2)nc(N2CCc3ccccc3C2C)c1C (stereo not shown),6.63%
O=C(/C=C/c1ccc(O)cc1)c1ccc(O)cc1O,100%
Cc1nccnc1N1CCCCC1,70.1%
CC1(O)CCC(C(C)(C)O)CC1 (stereo not shown),86.3%

# Sample 2
# Target: Serine/threonine-protein kinase Sgk1 (SGK1, Homo sapiens, UniProt O00141)
# Chain of UniProt O00141 (whole entry, looked up): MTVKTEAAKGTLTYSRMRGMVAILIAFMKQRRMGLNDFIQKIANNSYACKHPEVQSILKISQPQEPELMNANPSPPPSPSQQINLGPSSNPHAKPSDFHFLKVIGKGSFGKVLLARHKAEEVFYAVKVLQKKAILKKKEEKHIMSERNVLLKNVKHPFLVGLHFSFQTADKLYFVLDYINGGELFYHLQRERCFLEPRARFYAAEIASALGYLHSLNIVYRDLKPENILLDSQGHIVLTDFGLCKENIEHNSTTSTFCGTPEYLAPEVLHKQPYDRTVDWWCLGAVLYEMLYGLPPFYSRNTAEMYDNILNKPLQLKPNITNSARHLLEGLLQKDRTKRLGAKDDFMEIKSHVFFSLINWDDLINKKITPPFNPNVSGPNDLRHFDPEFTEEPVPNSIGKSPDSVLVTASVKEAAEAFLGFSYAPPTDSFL
# Observed: enzyme activity
# Action: inhibitor
# Concentration: 0.5 µM
# Baseline: control
SMILES,remaining activity [%]
CCN(CC)CCCCN1c2ccccc2Oc2ccc(Cl)cc21,99.4
C[C@@H](N)[C@H]1CC[C@H](C(=O)Nc2ccncc2)CC1,96.9
FC(F)(F)c1ccc(/C=C/c2nc(COc3ccc(CCCCn4ccnn4)cc3)co2)cc1,102
COc1cc2c(N3CCN(C(=O)Nc4ccc(OC(C)C)cc4)CC3)ncnc2cc1OCCCN1CCCCC1,123
c1cc(-c2cnn3cc(-c4ccc(OCCN5CCCCC5)cc4)cnc23)ccn1,55.2
N#C/C(=C(/N)SC1C=CC=CC1)c1cccc(C(O)c2ccncc2)c1 (stereo not shown),107
CC(C)n1cnc2c(Nc3cccc(Cl)c3)nc(NCCO)nc21,114
CC(C)(C)c1nc2c3cc[nH]c(=O)c3c3cc(F)ccc3c2[nH]1,50.9
CC(C)N(CCC(=O)c1ccc2ccccc2c1)Cc1ccccc1,101
CCCCc1c(-c2ccc(O)cc2)[nH]c2nccnc12,88.1
COc1cc2c(Nc3ccc(Br)cc3F)ncnc2cc1OCC1CCN(C)CC1,115
O=C(O)/C=C/c1cc(Br)c(Br)c(Br)c1Br,76.7
N#CC(c1ccnc(NCCc2cccnc2)n1)c1nc2ccccc2s1 (stereo not shown),100
Nc1nc(Nc2ccc(S(N)(=O)=O)cc2)nn1C(=S)Nc1c(F)cccc1F,48.7
Clc1ccc(Nc2nnc(Cc3ccncc3)c3ccccc23)cc1,121
O=C1NC(=O)/C(=C/c2ccc3c(c2)OC(F)(F)O3)S1,102
O=Nc1c(-c2c(O)[nH]c3ccccc23)[nH]c2ccccc12,69.1
NC(=O)c1cccc(-c2cc(Nc3ccc(OC(F)(F)F)cc3)ncn2)c1,101
CNc1cc2c(Nc3cccc(Br)c3)ncnc2cn1,94.4
O=C(c1ccccc1)c1ccc(N2CCOCC2)cc1O,101
NC(=O)c1ccc(-c2nc(-c3ccc4c(c3)OCCO4)c(-c3ccccn3)[nH]2)cc1,110

# Sample 3
# SMILES: O=C(O)c1cc(-c2ccc(C3CCNCC3)cc2)c2ccc(-c3ccc(C(F)(F)F)cc3)cc2c1
# Observed: cell-free assay
# Technique: competition with immobilised ligand
# Concentration: 1 µM
target,remaining binding [%]
"CIT (Homo sapiens, UniProt O14578)",100
"BRSK1 (Homo sapiens, UniProt Q8TDC3)",100
"Tyrosine-protein kinase ABL1, phosphorylated (ABL1, Homo sapiens, UniProt P00519, M351T)",100
"Tyrosine-protein kinase ABL1, non-phosphorylated (ABL1, Homo sapiens, UniProt P00519, H396P)",62
"SNRK (Homo sapiens, UniProt Q9NRH2)",71
"KIT (Homo sapiens, UniProt P10721, V559D/V654A)",100
"AKT1 (Homo sapiens, UniProt P31749)",99
"BMX (Homo sapiens, UniProt P51813)",100
"NEK11 (Homo sapiens, UniProt Q8NG66)",100
"TNK1 (Homo sapiens, UniProt Q13470)",100
"SBK3 (Homo sapiens, UniProt P0C264)",75
"EPHA5 (Homo sapiens, UniProt P54756)",97
"PIKFYVE (Homo sapiens, UniProt Q9Y2I7)",100
"STK38 (Homo sapiens, UniProt Q15208)",83
"PKN1 (Homo sapiens, UniProt Q16512)",100
"CDKL1 (Homo sapiens, UniProt Q00532)",93
"MYLK (Homo sapiens, UniProt Q15746)",85

# Sample 4
# Target: DNA polymerase theta, ATPase domain (POLQ, Homo sapiens, UniProt O75417)
# Chain of UniProt O75417 (whole entry, unmodified, looked up): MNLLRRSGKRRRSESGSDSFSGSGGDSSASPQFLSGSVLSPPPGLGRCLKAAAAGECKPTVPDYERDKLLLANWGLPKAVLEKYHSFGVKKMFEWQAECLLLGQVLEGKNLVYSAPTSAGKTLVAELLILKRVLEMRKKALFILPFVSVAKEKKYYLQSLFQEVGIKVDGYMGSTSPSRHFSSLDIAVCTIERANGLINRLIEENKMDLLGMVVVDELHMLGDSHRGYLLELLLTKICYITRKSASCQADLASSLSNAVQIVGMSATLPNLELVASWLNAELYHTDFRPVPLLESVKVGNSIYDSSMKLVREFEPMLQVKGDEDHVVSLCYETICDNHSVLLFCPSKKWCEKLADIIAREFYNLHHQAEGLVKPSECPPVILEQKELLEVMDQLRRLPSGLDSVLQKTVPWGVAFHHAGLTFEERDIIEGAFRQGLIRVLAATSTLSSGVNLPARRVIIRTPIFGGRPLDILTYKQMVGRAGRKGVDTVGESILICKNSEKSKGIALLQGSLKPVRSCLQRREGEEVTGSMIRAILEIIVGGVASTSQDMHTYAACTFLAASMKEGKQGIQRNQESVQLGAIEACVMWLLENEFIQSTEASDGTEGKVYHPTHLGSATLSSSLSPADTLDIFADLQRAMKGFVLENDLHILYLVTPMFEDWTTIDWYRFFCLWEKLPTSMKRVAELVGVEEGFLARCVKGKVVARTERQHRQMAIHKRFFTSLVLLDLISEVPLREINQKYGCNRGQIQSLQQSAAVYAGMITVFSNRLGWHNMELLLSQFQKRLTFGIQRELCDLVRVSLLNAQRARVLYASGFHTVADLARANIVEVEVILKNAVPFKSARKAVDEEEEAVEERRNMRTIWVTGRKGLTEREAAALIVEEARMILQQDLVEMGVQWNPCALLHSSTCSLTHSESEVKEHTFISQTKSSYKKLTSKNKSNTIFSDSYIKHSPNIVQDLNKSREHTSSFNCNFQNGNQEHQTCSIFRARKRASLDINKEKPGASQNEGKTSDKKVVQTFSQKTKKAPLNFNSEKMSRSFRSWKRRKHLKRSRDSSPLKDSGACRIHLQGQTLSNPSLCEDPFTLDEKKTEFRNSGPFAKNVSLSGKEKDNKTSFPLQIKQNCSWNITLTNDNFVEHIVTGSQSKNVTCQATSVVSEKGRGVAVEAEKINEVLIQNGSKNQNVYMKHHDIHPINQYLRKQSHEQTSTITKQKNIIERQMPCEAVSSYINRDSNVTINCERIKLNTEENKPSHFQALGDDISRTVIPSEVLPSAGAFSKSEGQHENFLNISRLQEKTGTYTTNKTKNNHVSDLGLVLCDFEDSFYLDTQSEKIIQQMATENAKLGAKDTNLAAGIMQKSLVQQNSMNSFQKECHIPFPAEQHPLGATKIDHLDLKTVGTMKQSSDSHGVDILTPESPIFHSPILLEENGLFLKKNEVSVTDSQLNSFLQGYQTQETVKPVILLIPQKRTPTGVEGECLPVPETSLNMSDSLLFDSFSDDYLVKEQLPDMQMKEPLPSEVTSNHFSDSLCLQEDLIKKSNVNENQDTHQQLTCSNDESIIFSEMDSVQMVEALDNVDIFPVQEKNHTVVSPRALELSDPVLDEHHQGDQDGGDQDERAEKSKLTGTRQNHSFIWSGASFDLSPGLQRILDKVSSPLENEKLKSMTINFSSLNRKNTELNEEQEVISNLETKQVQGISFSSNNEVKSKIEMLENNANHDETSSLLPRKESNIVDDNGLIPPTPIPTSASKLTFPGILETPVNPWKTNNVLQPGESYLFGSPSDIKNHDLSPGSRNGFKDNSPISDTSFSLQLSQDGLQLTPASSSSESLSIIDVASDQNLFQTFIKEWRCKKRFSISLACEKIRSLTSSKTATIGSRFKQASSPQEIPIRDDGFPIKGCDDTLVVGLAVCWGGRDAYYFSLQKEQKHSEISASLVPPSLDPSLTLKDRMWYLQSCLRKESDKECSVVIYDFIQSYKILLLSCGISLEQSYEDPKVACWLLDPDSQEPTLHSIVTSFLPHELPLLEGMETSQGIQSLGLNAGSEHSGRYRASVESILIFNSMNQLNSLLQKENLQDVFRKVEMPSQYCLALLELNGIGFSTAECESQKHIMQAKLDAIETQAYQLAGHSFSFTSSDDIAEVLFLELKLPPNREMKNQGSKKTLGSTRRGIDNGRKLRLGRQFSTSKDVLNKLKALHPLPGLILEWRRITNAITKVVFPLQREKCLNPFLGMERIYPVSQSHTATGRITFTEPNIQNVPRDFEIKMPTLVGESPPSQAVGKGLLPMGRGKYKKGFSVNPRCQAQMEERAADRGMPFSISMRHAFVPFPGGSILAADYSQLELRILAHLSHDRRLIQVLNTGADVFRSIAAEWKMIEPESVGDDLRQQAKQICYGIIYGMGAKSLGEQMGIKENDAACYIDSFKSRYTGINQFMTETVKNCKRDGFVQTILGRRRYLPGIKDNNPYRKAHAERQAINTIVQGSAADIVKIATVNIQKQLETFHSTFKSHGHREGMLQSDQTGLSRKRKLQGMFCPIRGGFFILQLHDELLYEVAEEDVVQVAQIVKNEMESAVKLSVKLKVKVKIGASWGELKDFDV
# Observed: enzyme activity
# Action: inhibitor
# Concentration: 77 µM
Compound,remaining activity [%]
O=c1ccc2cc(O)c(O)cc2o1,101
CC(C)(O)[C@H]1CC[C@@](C)([C@H]2[C@@H](O)C[C@@]3(C)[C@@H]4C[C@H](O[C@@H]5O[C@H](CO)[C@@H](O)[C@H](O)[C@H]5O)[C@H]5C(C)(C)[C@@H](O[C@@H]6OC[C@@H](O)[C@H](O)[C@H]6O)CC[C@@]56C[C@@]46CC[C@]23C)O1,103
Cc1c(Cc2ccc3ccccc3n2)c2cc(F)ccc2n1CC(=O)O,99.7
O[C@@H](COc1cccc2ncccc12)CN1CCN(C2c3ccccc3[C@@H]3[C@H](c4ccccc42)C3(F)F)CC1 (stereo partly shown),113
CC(C)(O)c1ccccc1CC[C@@H](SCC1(CC(=O)O)CC1)c1cccc(/C=C/c2ccc3ccc(Cl)cc3n2)c1,96
Cn1c(=O)c2c(ncn2C)n(C)c1=O,102

# For quick reference, copied from above (sample 2):
SMILES,remaining activity [%]
c1cc(-c2cnn3cc(-c4ccc(OCCN5CCCCC5)cc4)cnc23)ccn1,55.2
N#C/C(=C(/N)SC1C=CC=CC1)c1cccc(C(O)c2ccncc2)c1 (stereo not shown),107
CC(C)n1cnc2c(Nc3cccc(Cl)c3)nc(NCCO)nc21,114
CC(C)(C)c1nc2c3cc[nH]c(=O)c3c3cc(F)ccc3c2[nH]1,50.9
CC(C)N(CCC(=O)c1ccc2ccccc2c1)Cc1ccccc1,101
CCCCc1c(-c2ccc(O)cc2)[nH]c2nccnc12,88.1
COc1cc2c(Nc3ccc(Br)cc3F)ncnc2cc1OCC1CCN(C)CC1,115
